Results collected from several papers.
Lines come from different studies, so protocols differ. ± marks the error that the study gave. Ends that are not written are not given here. No end group written: not given here. *: point of attachment.
B1: ICAM1 28-485 (Homo sapiens, UniProt P05362); sequence looked up; chain QTSVSPSKVILPRGGSVLVTCSTSCDQPKLLGIETPLPKKELLLPGNNRKVYELSNVQEDSQPMCYSNCPDGQSTAKTFLTVYWTPERVELAPLPSWQPVGKNLTLRCQVEGGAPRANLTVVLLRGEKELKREPAVGEPAEVTTTVLVRRDHHGANFSCRTELDLRPQGLELFENTSAPYQLQTFVLPATPPQLVSPRVLEVDTQGTVVCSLDGLFPVSEAQVHLALGDQRLNPTVTYGNDSFSAKASVSVTAEDEGTQRLTCAVILGNQSQETLQTVTIYSFPAPNVILTKPEVSEGTEVTVKCEAHPRAKVTLNGVPAQPLGPRAQLLLKATPEDNGRSFSCSATLEVAGQLIHKNQTRELRVLYGPRLDERDCPGNWTWPENSQQTPMCQAWGNPLPELKCLKDGTFPLPIGESVTVTRDLEGTYLCRARSTQGEVTRKVTVNVLSPRYEIVIIT
B2: lexA 81-204 S125A (Pseudomonas aeruginosa, UniProt P37452); FlAsH-labeled tetracysteine tag; sequence looked up; chain GLPVIGRVAAGAPILAEQNIEESCRINPAFFNPRADYLLRVRGMAMKDIGILDGDLLAVHVTREARNGQVVVARIGEEVTVKRFKREGSKVWLLAENPEFAPIEVDLKEQELIIEGLSVGVIRR
B3: bfd 1-73 C43S (Pseudomonas aeruginosa, UniProt Q9HY80); chain MYVCLCQGVTDNQIRDAIYEGCCSYREVREATGVGTQCGKCASLAKQVVRETLNDLQSAQPVPAFGTTAFVAA
B4: LY96 LOS-bound (Homo sapiens, UniProt Q9Y6Y9); sequence looked up; chain QKQYWVCNSSDASISYTYCDKMQYPISINVNPCIELKRSKGLLHIFYIPRRDLKQLYFNLYITVNTMNLPKRKEVICRGSDDDYSFCRALKGETVNTTISFSFKGIKFSKGKYKCVVEAISGSPEEMLFCLEFVILHQPNSN
B5: FBLN5 42-167 (Homo sapiens, UniProt Q9UBX5); chain DIDECRTIPEACRGDMMCVNQNGGYLCIPRTNPVYRGPYSNPYSTPYSGPYPAAAPPLSAPNYPTISRPLICRFGYQMDESNQCVDVDECATDSHQCNPTQICINTEGGYTCSCTDGYWLLEGQCL
B6: wzb (Escherichia coli, UniProt P0AAB2); chain MFNNILVVCVGNICRSPTAERLLQRYHPELKVESAGLGALVGKGADPTAISVAAEHQLSLEGHCARQISRRLCRNYDLILTMEKRHIERLCEMAPEMRGKVMLFGHWDNECEIPDPYRKSRETFAAVYTLLERSARQWAQALNAEQV
B7: CyaY 1-106 (Escherichia coli, UniProt P27838); chain MNDSEFHRLADQLWLTIEERLDDWDGDSDIDCEINGGVLTITFENGSKIIINRQEPLHQVWLATKQGGYHFDLKGDEWICDRSGETFWDLLEQAATQQAGETVSFR
Chain of UniProt Q9KWN0 (whole entry, looked up): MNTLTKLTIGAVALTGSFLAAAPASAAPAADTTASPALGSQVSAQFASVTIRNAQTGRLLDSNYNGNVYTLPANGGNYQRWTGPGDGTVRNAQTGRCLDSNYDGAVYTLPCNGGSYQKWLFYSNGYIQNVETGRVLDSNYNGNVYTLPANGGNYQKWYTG
Chain of UniProt P35555 (whole entry, looked up): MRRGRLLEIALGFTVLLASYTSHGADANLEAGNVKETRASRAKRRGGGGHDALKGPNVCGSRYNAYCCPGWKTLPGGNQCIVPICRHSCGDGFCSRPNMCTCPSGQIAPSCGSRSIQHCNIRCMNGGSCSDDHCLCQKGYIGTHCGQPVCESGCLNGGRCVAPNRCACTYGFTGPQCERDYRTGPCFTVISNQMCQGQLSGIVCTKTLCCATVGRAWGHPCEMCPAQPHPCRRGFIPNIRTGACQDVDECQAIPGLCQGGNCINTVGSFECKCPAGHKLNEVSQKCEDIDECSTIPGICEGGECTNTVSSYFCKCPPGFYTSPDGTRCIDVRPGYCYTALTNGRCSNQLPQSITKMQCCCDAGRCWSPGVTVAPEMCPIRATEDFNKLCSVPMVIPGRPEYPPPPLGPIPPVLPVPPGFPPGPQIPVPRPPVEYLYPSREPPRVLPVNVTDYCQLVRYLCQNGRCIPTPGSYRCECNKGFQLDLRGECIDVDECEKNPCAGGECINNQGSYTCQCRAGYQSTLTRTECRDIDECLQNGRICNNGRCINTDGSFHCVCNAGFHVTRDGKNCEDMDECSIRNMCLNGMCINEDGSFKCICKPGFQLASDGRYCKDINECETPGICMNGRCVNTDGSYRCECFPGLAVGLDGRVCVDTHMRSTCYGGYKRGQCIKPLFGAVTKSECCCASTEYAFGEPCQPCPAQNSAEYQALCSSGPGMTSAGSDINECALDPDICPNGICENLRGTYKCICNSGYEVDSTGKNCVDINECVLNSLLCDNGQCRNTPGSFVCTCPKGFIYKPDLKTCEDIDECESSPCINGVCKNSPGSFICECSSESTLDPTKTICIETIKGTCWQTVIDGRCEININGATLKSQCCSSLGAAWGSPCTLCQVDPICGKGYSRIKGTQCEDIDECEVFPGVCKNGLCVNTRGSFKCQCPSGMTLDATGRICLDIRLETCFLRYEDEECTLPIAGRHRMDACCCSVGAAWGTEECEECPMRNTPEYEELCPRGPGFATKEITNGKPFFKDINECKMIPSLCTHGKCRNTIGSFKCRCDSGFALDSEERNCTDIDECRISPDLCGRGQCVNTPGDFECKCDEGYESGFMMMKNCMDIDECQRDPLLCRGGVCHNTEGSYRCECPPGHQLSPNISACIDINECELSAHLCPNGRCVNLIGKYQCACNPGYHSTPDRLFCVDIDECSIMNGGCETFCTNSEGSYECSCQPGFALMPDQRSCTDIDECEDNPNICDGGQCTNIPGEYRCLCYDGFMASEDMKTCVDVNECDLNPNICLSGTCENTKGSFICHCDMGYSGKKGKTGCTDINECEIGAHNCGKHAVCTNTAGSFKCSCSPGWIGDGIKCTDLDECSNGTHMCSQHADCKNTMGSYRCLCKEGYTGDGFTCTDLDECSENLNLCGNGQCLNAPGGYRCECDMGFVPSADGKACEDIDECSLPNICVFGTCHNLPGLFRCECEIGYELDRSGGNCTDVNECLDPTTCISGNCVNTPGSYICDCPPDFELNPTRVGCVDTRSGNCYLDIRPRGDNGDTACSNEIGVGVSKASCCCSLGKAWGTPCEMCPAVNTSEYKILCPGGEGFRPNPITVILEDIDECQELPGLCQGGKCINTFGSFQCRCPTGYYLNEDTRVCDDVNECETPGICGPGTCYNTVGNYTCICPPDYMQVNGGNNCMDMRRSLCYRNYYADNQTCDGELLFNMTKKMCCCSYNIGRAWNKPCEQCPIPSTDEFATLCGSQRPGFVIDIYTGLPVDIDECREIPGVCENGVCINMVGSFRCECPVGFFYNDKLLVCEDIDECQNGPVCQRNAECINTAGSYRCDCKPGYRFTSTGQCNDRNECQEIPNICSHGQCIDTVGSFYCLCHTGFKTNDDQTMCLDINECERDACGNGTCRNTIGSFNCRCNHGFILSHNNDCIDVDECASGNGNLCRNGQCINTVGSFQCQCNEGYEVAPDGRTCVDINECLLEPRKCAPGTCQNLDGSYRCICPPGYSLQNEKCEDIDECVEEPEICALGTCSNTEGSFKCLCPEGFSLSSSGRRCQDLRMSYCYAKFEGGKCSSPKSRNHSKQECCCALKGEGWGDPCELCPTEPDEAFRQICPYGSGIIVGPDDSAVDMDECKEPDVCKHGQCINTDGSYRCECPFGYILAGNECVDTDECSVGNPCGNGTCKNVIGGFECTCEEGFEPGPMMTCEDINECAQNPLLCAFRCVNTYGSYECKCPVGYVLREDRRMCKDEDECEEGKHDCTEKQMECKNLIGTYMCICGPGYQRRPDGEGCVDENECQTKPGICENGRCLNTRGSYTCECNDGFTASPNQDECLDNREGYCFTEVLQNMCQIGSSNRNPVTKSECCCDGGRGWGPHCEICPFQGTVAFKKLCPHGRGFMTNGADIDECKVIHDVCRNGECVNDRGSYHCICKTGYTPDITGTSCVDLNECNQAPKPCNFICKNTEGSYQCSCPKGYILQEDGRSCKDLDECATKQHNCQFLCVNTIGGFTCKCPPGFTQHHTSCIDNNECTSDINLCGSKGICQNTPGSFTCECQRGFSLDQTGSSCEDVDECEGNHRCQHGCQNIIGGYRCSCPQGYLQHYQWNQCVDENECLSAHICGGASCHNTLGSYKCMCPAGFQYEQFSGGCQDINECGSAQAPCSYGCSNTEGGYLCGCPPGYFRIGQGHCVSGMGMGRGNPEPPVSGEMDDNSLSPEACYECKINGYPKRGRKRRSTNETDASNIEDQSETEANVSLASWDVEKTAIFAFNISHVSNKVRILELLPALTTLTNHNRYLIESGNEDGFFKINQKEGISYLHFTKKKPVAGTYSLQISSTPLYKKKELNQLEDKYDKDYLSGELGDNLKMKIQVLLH
Chain of UniProt P26151 (whole entry, looked up): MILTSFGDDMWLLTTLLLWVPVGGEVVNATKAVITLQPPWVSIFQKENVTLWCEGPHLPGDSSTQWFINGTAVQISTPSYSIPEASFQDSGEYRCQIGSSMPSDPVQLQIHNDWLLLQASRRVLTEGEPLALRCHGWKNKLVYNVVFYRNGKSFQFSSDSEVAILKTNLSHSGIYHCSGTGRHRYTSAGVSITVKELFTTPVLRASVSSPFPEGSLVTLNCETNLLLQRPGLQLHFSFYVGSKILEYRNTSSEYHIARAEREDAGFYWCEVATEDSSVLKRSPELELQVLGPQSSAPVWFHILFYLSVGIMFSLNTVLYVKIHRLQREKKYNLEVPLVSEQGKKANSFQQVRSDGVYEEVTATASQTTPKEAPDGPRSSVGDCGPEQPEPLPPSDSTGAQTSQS
Chain of UniProt O00206 (whole entry, looked up): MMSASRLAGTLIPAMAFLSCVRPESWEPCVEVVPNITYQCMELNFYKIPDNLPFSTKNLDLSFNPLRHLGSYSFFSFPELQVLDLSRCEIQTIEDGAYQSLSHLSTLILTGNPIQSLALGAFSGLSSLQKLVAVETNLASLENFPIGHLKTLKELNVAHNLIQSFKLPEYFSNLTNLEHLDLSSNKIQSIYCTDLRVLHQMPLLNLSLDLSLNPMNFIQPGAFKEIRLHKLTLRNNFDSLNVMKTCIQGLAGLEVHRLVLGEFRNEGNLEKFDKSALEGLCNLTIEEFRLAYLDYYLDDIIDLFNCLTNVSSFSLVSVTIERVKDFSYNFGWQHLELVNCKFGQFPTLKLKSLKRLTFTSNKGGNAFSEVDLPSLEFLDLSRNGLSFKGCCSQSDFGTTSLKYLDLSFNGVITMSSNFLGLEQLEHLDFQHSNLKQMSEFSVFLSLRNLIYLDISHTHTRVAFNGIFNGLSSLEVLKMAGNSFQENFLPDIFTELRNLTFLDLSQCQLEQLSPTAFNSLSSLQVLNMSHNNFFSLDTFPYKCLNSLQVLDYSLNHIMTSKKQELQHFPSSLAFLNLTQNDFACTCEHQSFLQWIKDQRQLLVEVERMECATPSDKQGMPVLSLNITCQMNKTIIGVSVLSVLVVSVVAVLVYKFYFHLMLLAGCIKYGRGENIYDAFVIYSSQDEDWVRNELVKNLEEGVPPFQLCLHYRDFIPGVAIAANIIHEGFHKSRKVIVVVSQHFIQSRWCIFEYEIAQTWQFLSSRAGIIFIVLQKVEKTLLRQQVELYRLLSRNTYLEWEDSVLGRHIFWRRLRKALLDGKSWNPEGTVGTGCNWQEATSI
Chain of UniProt P08637 (whole entry, looked up): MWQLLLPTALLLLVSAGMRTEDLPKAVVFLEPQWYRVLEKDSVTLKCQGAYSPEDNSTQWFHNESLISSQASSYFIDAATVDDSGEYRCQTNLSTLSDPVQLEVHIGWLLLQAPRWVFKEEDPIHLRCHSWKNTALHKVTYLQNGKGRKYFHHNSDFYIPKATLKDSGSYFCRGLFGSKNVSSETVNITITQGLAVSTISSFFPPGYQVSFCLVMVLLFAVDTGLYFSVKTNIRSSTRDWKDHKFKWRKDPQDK

B1 (ICAM1 28-485) — Kd (IT4VAR13 1-2691 (Plasmodium falciparum, UniProt A3R6S0); SPR; Fc fusion; one-site fit): 2.8 nM
B2 (lexA 81-204 S125A) — Kd (recA ssDNA/ATPγS-bound filament (Pseudomonas aeruginosa, UniProt P08280); fluorescence polarisation; 37 °C, apparent, added: ATPγS): 390 ± 50 nM
B3 (bfd 1-73 C43S) — Kd (bfrB 1-158 extra Met0 (Pseudomonas aeruginosa, UniProt Q9HY79); ITC; pH 7.0, 22 °C): 2600 ± 1000 nM
ATTO488-QMVRMILKIDDIRKPGESEE (CCT5 peptide 522-541 (Homo sapiens, UniProt P48643); N-terminal ATTO488 label) — Kd (DDB1/DCAF12 1-1140 (Homo sapiens); TR-FRET; peptide; pH 7.4, NaCl 200 mM, equimolar binding assumed): 245 ± 52 nM
Fcgr1 (Mus musculus, UniProt P26151) — Kd (Ighg3 Fc domain, C-terminal CGS-21680 conjugate (Mus musculus); SPR): 388 ± 67 nM
B4 (LY96 LOS-bound) — Kd (TLR4 (Homo sapiens, UniProt O00206); radioligand binding; HEK293 expressing TLR4; 30 min, pH 7.4, 37 °C, Scatchard analysis, in cells): 0.734 ± 0.04 nM
{FITC-Ahx}-LWGFLSRNKKPRICTREEF (NS5 NLS central peptide (dengue virus 1); N-terminal FITC, AHX linker; FITC = O=C1OC2(c3ccc(O)cc3Oc3cc(O)ccc32)c2ccc(NC(=S)*)cc21; Ahx = NCCCCCC(=O)O) — Kd (KPNA6 fragment (Homo sapiens); fluorescence polarisation; peptide; pH 8, one-site fit): 360 ± 40 nM
B5 (FBLN5 42-167) — Kd (FBN1 31-489 (Homo sapiens, UniProt P35555); ELISA): 344 ± 54 nM
B6 (wzb) — Kd (wzc 447-704 (Escherichia coli, UniProt P76387); NMR titration; 25 °C, apparent): 8600 ± 600 nM
Pebp1 fragment (Rattus norvegicus) (sequence not shown) — Kd (PRKACA fragment (Homo sapiens); BLI; pH 6.5, 20 °C, added: apo): 36400 ± 700 nM
FCGR3A (Homo sapiens, UniProt P08637) — Kd (protein Fc fusion, IgG1 (Homo sapiens, UniProt Q9KWN0); SPR; steady state): 280 nM
B7 (CyaY 1-106) — Kd (IscS 1-404 (Escherichia coli, UniProt P0A6B7); ITC; pH 8.0, 25 °C, NaCl 150 mM): 18500 ± 2400 nM

Some of these lines once more:
{FITC-Ahx}-LWGFLSRNKKPRICTREEF (NS5 NLS central peptide (dengue virus 1); N-terminal FITC, AHX linker; FITC = O=C1OC2(c3ccc(O)cc3Oc3cc(O)ccc32)c2ccc(NC(=S)*)cc21; Ahx = NCCCCCC(=O)O) — Kd (KPNA6 fragment (Homo sapiens); fluorescence polarisation; peptide; pH 8, one-site fit): 360 ± 40 nM
